Results from different studies.
Numbered parts are unrelated; each lists some results of a single study. Positions count from the first letter of the parent shown.

Set 1 — method: protein binding microarray; form: double-stranded DNA, one strand shown; medium: in vitro; tested at: not given; baseline: not given; reading: higher = stronger binding
Target: Histone acetyltransferase KAT6A, winged helix 1, GST fusion (KAT6A, Homo sapiens, UniProt Q92794, residues 1-85)
Setting: 8-mer, flanks averaged, mean of 2 arrays, mostly near background
Construct (chain): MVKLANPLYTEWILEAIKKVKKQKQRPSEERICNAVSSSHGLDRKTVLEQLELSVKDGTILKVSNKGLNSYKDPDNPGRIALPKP
Strand	E-score
TACCAATA	0.0435
GCGTGAAC	0.254
AGGACGGG	0.19
AAGGCAGC	-0.0514
AGTGACGA	-0.237
CCAATTAG	-0.254
ACTCGCTC	0.0125
CAACTGAG	-0.097
ACATACCT	-0.198
GCTCAAAC	-0.0266
AGTGTTAA	0.0816
AGAGCCCG	0.113
ACAGCTTA	-0.231
TCATCGGA	-0.0292
TATCTTCA	-0.0471
TAAGGCTA	-0.137
GGGTTCAA	0.0921
CTACATTA	-0.111
AGTACCCA	-0.0516
CCTGAGGA	-0.115
AGCGATGG	0.0766
CTTGCTCA	-0.138
GAATAGAC	-0.182
TGACCGCA	0.204
ATACGACC	0.0609

Set 2 — method: DHFR PCA, deep sequencing; medium: yeast; added: (+)-ABA 4.8 µM; baseline: wild-type fitted maximum; reading: higher = stronger binding
Target: ABI1, truncated, D143A, DHFR fusion (Arabidopsis thaliana)
Setting: methotrexate growth selection, single substitutions
Starting sequence: PYL1, truncated, DHFR fusion (Arabidopsis thaliana); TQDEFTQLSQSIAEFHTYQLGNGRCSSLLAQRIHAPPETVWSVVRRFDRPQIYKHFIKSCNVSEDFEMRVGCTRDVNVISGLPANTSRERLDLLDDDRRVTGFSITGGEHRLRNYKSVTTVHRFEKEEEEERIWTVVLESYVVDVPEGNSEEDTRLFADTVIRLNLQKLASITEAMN
Variant	relative binding score [%]
W134T	91.4
W134S	88.8
I162G	-9.69
W41H	5.04
I172N	17.1
D159P	-5.13
S59H	50
I33R	4.69
D97I	52.8
F47S	-3.99
V43N	-4.1
G81K	-8.3
L156P	-1.06
D153C	-0.738
R113K	88
R123T	68.2

Set 3 — method: universal PBM; form: double-stranded DNA, one strand shown; medium: in vitro; tested at: 600 nM; reading: higher = stronger binding
Target: Sal-like protein 4, full length isoform A (SALL4, Homo sapiens, UniProt Q9UJQ4, residues 1-1053)
Sequence of UniProt Q9UJQ4 (whole entry, looked up): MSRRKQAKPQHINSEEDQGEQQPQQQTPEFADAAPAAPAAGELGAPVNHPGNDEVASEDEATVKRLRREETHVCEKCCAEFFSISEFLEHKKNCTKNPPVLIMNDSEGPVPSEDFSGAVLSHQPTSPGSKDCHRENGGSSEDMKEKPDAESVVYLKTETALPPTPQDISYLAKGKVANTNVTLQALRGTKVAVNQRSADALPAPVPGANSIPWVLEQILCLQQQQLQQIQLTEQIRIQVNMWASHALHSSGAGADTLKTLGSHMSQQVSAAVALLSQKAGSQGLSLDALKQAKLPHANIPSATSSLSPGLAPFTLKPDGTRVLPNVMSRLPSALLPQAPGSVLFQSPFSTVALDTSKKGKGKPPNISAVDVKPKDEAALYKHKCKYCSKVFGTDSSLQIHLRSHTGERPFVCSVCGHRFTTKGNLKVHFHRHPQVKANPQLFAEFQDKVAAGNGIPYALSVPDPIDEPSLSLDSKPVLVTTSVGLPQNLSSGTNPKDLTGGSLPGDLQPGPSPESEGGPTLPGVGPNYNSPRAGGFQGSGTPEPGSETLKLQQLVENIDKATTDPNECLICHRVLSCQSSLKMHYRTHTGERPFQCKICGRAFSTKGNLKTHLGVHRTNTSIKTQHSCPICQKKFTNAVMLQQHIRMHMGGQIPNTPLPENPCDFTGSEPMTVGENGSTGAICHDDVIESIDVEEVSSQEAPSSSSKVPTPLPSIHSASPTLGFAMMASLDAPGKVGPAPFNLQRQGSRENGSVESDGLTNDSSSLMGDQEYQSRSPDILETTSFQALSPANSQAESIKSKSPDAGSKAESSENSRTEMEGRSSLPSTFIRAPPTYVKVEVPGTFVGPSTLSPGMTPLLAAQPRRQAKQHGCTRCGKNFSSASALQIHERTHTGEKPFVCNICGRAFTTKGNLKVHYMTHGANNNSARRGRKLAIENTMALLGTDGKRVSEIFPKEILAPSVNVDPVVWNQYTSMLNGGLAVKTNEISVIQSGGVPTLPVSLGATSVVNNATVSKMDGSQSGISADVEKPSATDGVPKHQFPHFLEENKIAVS
Setting: 8-mer, flanks averaged, mean of replicates
Strand	E-score
ACCTTCCT	-0.151
CAATCGGG	-0.243
GAGGGAGC	-0.249
ACGTTGAA	0.0418
GGGAGAAC	-0.317
ATTTTTAC	0.392
ACCAATTG	0.0478
CTGGGATA	0.0671
CCTTGATA	0.144
ACATGGAG	-0.118
GGGCGCCC	-0.371
GTATTTTA	0.341
CCCACAGG	-0.265
ATGATCTC	-0.0367
CCAATGGA	-0.11
ATACCGAC	0.0326
AACGCCAT	-0.129
AGCGCTTG	-0.172
CATGAGCC	-0.104
CTCAATAC	0.133
ACGTCTTC	-0.0111
CTTATGTC	0.0251
AGTGTACC	-0.134
AACAAGAT	0.157
AATCGTTG	0.0837

Set 4 — target: CCNA2, cyclin fold, Cln2 fusion (human); method: yeast growth competition, sequencing; medium: yeast; setting: strong parent motif; baseline: not given; reading: higher = stronger binding
Starting sequence: INSM1 docking peptide (human); PKAIRKLHFEDEV; partner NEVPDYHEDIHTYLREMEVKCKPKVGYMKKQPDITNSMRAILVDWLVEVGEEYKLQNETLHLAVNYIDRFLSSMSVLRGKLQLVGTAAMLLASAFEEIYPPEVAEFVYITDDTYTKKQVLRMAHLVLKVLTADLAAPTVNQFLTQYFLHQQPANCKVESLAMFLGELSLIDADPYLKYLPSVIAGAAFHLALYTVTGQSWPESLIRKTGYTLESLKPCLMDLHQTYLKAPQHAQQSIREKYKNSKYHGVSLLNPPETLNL
Variant	normalised enrichment score
I4E	1.74
L7C	0.349
E10R	4.33
K2C	4.85
R5E	-0.022
K2F	4.03
H8T	5.52
L7Q	0.0853
H8Q	5.35
F9W	1.89
H8P	2.79
R5V	1.13
H8N	5.61
L7A	0.0108
K6R	5.67
I4Q	6.49
A3F	4.28

Set 5 — method: RNA Bind-n-Seq; form: RNA; medium: in vitro; tested at: 1 µM; setting: whole 134-nt RNA, ends assumed; added: 150 mM KCl; baseline: input library; reading: higher = stronger binding
Target: Ras GTPase-activating protein-binding protein 1, RRM domain (G3BP1, Homo sapiens, UniProt Q13283)
Sequence of UniProt Q13283 (whole entry, looked up): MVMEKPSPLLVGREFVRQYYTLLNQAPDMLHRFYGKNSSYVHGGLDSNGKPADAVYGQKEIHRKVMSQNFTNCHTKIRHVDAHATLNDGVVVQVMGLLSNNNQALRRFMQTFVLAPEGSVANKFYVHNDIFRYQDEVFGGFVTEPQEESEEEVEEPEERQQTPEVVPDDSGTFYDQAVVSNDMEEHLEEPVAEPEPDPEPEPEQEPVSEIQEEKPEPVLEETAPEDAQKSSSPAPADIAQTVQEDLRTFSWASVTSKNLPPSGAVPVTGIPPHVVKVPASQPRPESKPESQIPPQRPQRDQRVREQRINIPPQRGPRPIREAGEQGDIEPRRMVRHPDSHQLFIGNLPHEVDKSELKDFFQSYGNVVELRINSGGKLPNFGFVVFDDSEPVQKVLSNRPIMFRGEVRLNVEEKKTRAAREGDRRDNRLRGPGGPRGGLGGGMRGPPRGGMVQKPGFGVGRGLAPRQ
Strand	log2 enrichment
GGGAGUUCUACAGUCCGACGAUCCUCAAGUCCUGUGCUACACAUCGUAUGUACCGAAUCGGGGUUGGGUUGGGUUGGAAAGUAUUAUGUUACGCCGUUCGGAUCUGCACUUCCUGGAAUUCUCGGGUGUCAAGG	-0.19
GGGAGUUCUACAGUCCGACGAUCUAACCUUAGAGGAGGAUCUGAUGGAUAUGGCAGUGGACGUGGAUUUGGGGAUGGCUAUAAUGGGUAUGGAGGAGGACCUGGAGGUGGCAAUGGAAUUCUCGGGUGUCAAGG	-0.613
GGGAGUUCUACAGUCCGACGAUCAAGUCCUGUGCUACACAUCGUAUGUACCGAAUCGGGUUUUUGGGAGGGUUUUUGGGAAAGUAUUAUGUUACGCCGUUCGGAUCUGCACUUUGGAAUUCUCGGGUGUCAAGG	0.388
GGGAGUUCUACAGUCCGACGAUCUGGGAGGUGGAUUUUGUUUAUUUUUUUAGCUCAUUUCCAGGGGUGGGAAUUUUUUUUUAAUAAGUGUCAUGAAUAAAGUUGUUUUUGAAAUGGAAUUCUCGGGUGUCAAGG	2.18
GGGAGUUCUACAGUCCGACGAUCUCCUGUGCUACACAUCGUAUGUACCGAAUCGGGCCCCCCGGGGCCCCCCGGGCCCCCCGGAAAGUAUUAUGUUACGCCGUUCGGAUCUGCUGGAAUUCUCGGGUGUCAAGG	-0.388
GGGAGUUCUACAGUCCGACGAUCAGUCCUGUGCUACACAUCGUAUGUACCGAAUCGGGAAAAGGGGAAAAGGGAAAAGGGAAAGUAUUAUGUUACGCCGUUCGGAUCUGCACUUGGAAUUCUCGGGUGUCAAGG	0.528
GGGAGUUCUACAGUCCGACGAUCUGGCCCUGGUGGCAUGCGGGGAGGAAGAGGUGGCCUCAUGGAUCGUGGUGGUCCCGGUGGAUUGUUCAGAGGUGGCCGUGGUGGAGACAGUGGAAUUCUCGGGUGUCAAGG	0.878
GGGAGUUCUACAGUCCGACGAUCCUCAAGUCCUGUGCUACACAUCGUAUGUACCGAAUCGGUUUGGGUUUGGUUUGGAAAGUAUUAUGUUACGCCGUUCGGAUCUGCACUUCCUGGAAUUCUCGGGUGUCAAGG	-0.228
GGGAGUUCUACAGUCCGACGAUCGCAGGAAGUAAAAACAAAUGGAAAUGCUUCGGAUAGUGGCAGGGGUGGGGGUUGCUAAGGAAAGGGUGGGAUGGGAGUGGGCAAAGAGUUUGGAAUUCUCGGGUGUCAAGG	0.763
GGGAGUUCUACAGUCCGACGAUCUGUGCUACACAUCGUAUGUACCGAAUCGGGGAAAAAAAGGGGUUUUUGGGGAAAAAAAGGGGAAAGUAUUAUGUUACGCCGUUCGGAUCUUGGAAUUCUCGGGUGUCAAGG	1.33

Mixed results
Substance	target	test	system	conditions	scale	endpoint	result
PhoQ, residues 284 288 289 292 302 303 SIHMAM	PhoP, residues 12 14 15 18 19 VHTVL (Escherichia coli, UniProt P23836)	Sort-seq, item: YFP reporter	E. coli	PhoQ-PhoP variant library, added: 10 µM Mg2+	baseline: high Mg2+ state, higher = stronger signaling	fold induction	7.84
